Results from different studies.
Several values in a cell are separate wells, animals, samples, runs or records.
Target: 5-hydroxytryptamine receptor 3A (HTR3A, Homo sapiens, UniProt P46098)

COc1ccccc1N1CCN(CCCCN2CCCc3ccccc3C2=O)CC1 — inhibition (radioligand binding; concentration not given, added: [3H]GR65630): 18.2%
C/C(=N\OCCCN1CCCCC1)c1ccc(C(F)(F)F)cc1 — activation (calcium influx, agonist, FLIPR; 10 µM): 0.11%
COc1ccc(F)cc1S(=O)(=O)Nc1cnc2c(c1)C(=O)NCCO2 — inhibition (ligand displacement, radioligand; 10 µM): 5%
N[C@H](C(=O)N1CCCC1)C1CCN(c2nccc3c(-c4ncc(Cl)cc4Cl)cccc23)CC1 — inhibition (ligand displacement, radioligand; 10 µM): -3%
CCOC(=O)[C@](CC)(CCCSCCOCCOCCNC(=O)c1ccc(-c2c3ccc(=N)c(S(=O)(=O)O)c-3oc3c(S(=O)(=O)O)c(N)ccc23)c(C(=O)O)c1)NC(=O)c1ccc(C2CC2)c(Cc2ccc(F)cc2)n1 — inhibition (ligand displacement, radioligand; 10 µM): 6%
CCN(CC)CCOc1ccc(-c2nnn(Cc3ccc(OC)cc3)c2N)cc1 — inhibition (radioligand binding; HEK293; 10 µM, safety profiling): 10.9%
CS(C)(=O)=Nc1ccc(-c2ccc(-c3nc4cc(O[C@@H]5CO[C@H]6[C@@H]5OC[C@H]6O)[nH]c4cc3F)cc2)cc1 — inhibition (ligand displacement, radioligand; 10 µM): 1%
C[C@H](NCc1ccc(-c2ccc(C(F)(F)F)cc2)cc1)C(N)=O — inhibition (radioligand binding, SafetyScreen panel; 1 µM, added: 0.69 nM [3H]GR-65630): 11%
CN[C@@H]1[C@H](O)[C@H](NC)[C@H]2O[C@]3(O)[C@H](O[C@@H]2[C@H]1O)O[C@H](C)C[C@H]3NC(=O)Cc1ccc(Cl)cn1 — inhibition (ligand displacement, radioligand; 10 µM): -2%
O=C(O)c1ccc(-c2nc(-c3ccccc3Cl)c3sccn23)cc1 — specific binding (radioligand binding, safety screen panel; 10 µM; reference: control): 96.4% and 98.3%
CCc1nnc(-c2c(OC)cc(-c3cnc4cc(-c5cnn(C)c5)ccn34)cc2OC)o1 — remaining binding (antagonist radioligand, radioligand binding; 10 µM, SafetyScreen44 5-HT3 mean; lower = stronger displacement): 114%
O=C1c2ccccc2CCCN1CCCCN1CCN(c2cccc(Cl)c2Cl)CC1 — inhibition (radioligand binding; concentration not given, added: [3H]GR65630): 95.7%
Cc1sc2c(c1C)C(c1ccc(Cl)cc1)=NC(CC(=O)OC(C)(C)C)c1nnc(C)n1-2 (stereo not shown) — inhibition (ligand displacement, radioligand; 1 µM): -6%
